Assay results from different studies.
Numbered parts are unrelated; each lists some results of a single study. Substitutions count along the parent as printed.

Set 1
Target: RING finger protein unkempt homolog, zinc fingers 1-6, GST-SBP tag (UNK, Homo sapiens, UniProt Q9C0B0, residues 30-357)
Chain of UniProt Q9C0B0 (30-357, looked up): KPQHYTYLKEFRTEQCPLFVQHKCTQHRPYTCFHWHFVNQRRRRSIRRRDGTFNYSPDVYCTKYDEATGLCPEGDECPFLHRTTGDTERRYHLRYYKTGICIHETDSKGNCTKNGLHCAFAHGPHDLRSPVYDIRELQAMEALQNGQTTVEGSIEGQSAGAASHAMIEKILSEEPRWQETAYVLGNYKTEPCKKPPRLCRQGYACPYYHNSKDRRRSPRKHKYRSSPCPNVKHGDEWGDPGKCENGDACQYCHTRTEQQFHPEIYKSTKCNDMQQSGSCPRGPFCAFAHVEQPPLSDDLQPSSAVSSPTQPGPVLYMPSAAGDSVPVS
Method: RNA Bind-n-Seq
Form: RNA
Matrix: in vitro
Concentration: not given
Notes: RNA with constant flanks, human-mouse chimeric sites, ends assumed
Relative to: input RNA pool
Direction: higher = stronger binding
Shared flanks, not repeated: GGGAGUUCUACAGUCCGACGAUC … CAACAGAGGAUUGAGCAUCA
Strand | bound/input enrichment [ratio]
CGCUGGCGUUGAACUGUGGACUCUGAUGGCCUCCAUCUCUCAGGCACGUGUGCCUUCUCUUAGUCCCUGUUUUCGGGAUGUUAUGAAUCUCAGUACUGUUUGACAGAAGCACCAGCUUUG | 0.215
CGGAGCCCUCCUCUCCCACAGGCCCAAGAUAUAACCCACCAGUGCCUUUUGUCUUCCUGUCAGCUCUGUCAAUCACGCCUGUCCUCUGUCCCUCUCACUCCCCAGCCAAAGUGGGGAGGG | 0.619
GGAAGCACAAUGAUGGAGAUUGAUGGUGACAAAGGCAAGCAGGGCGGGCCCACCUACUACAUAGACACUAAUGCUCUCCGCGUGCCCAGGGAGAACAUGGAGGCCAUCUCACCACUCAAG | 0.528
AAAGAGAAACUAAAGCAACUAAUAGAGAAGAGGAUUGGCAAAGAGAAAUUUCAUAGAAAACUAGGAUUUAUUAGCAAACAUGAGUUAUAUUCCAGAGGCAUCUCAGAACCCCAGCCAAAC | 11.5
UCAUUUUUCUCUUUUCUGAUCGUCAGGUAGGAAAAGCCUAAAGAUUAGGUUGUAAGAAAAAUAGAAGCCAUGUUUCGAAGACCUGUGUUACAGGUAUUUCGUCAGUUUGUAAGACAUGAG | 9.98
UAAGUUAUUUUGUACAGCUUUGUAAAUUCUUAACAUUUUUAUAUUGCCAUGUUUAUUUUGUUUGGGUAAUUUGGUUCAUUAAGUACAAAACCAAAUAAAUGAACAUCGUAAUUAUAGAUU | 0.561
UAAGUCCUGUGCCAGCAAUUUAUCCCAAAAGUUUUAAAUUCUGGACCAAUAGUGUUUGUUUCCUGAUUAUUGUAUCCAAUACUUUGCCUAGUAUGUAACUCAUGCUUACUGAUAAUAAAA | 1.15
GCAGGAUCUUCUAAGUACCAGUGGGACAUUAUGAAAUCCCUUGGGCUGUCUGAUGAAGACAUAGUGAAAUUUUCUGAAGCAGAGCACUGGCUUGAUUAUUUCCCACCACUGGCCGUUCAG | 0.361
UUACCCGAGAACGAGGAUGAGCUGGAGAGCACCAACAGGCGCUACACCAAGAGGGACUGUAGCACUUUCCUCAGAACUAGUGAGACGGGCAUCGUGGAUCAGGUUAUGGUCACUCUCAAC | 0.258
AUAAAGGCUAUGUUGAGUGGUCCAGGUCAGUUUGCUGAGAAUGAAACCAAUGAGGUCAAUUUUAGAGAGAUCCCCUCACAUGUGCUAUCAAAAGUGUGCAUGUAUUUUACCUACAAGGUC | 0.169
UCCCAAAUCCAGCAGCUAGAAGGAGCCAAUUGUUUGUCACUCCACACACAGGGAAGGCAAUAGCUUUGUACAUUGGUUUACAUUUUUUCCCCCUGUGGAUUUUUCUAGAGGUCAUAGUGC | 0.636

Set 2
Target: CCND1, cyclin fold, Cln2 fusion (human)
Method: yeast growth competition, sequencing
Matrix: yeast
Notes: weak parent motif
Relative to: not given
Direction: higher = stronger binding
Starting sequence: RB1 docking peptide (human); PKPLKKLRFDIEG
Substitution | normalised enrichment score
PKPLKKLRFDING [E12N] | -0.0643
PKRLKKLRFDIEG [P3R] | 0.108
PKPLNKLRFDIEG [K5N] | 0.187
PKPLMKLRFDIEG [K5M] | 0.0711
PKPLKMLRFDIEG [K6M] | 0.322
PKPLKKLRVDIEG [F9V] | 0.336
PKPLKKDRFDIEG [L7D] | -0.856
PKPLKKLRFDREG [I11R] | -0.875
PKPLKKSRFDIEG [L7S] | -0.248
PKPLKYLRFDIEG [K6Y] | -0.601
PKPLKKLRFDIEN [G13N] | 0.208
PKPLKLLRFDIEG [K6L] | 0.523
PKILKKLRFDIEG [P3I] | 0.232
PKPLKKLRFDIEM [G13M] | -0.0967
PKPDKKLRFDIEG [L4D] | 0.465
PLPLKKLRFDIEG [K2L] | 0.474
PKPIKKLRFDIEG [L4I] | 0.726
PKPLKKLRFDIEW [G13W] | -0.322
RKPLKKLRFDIEG [P1R] | -0.179

Set 3
Target: Histone acetyltransferase KAT6A, winged helix 1, GST fusion (KAT6A, Homo sapiens, UniProt Q92794, residues 1-85)
Method: protein binding microarray
Form: double-stranded DNA, one strand shown
Matrix: in vitro
Concentration: not given
Notes: 8-mer, flanks averaged, mean of 2 arrays, mostly near background
Relative to: not given
Direction: higher = stronger binding
Residues (chain): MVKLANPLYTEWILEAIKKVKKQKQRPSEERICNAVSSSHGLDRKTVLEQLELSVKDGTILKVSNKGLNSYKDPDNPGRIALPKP
Strand | E-score
CCCGGGGC | 0.292
ATTTTGCA | -0.297
TGACCGCA | 0.204
CTAGTAAG | -0.0849
GCGCGATA | 0.371
CACGGTTA | 0.129
GGTGGACA | -0.125
TCATCGGA | -0.0292
CGAGAAGA | -0.137
ACATCTAA | -0.159
AAAAAATG | -0.183
CAGGCCGG | 0.127
GCAGATAC | -0.00268
AGATCCGA | 0.0372
CGGTTCGC | 0.22
TAAGATTA | -0.0501
ACACGAGC | -0.141
AGTCTTTA | -0.215

Set 4
Substance: PhoQ, residues 284 288 289 292 302 303 AQGLTV
Method: Sort-seq
Measured: YFP reporter
Matrix: E. coli
Notes: PhoQ-PhoP variant library
With: 10 µM Mg2+
Relative to: high Mg2+ state
Direction: higher = stronger signaling
target | fold induction
PhoP, residues 12 14 15 18 19 ICWRQ (Escherichia coli, UniProt P23836) | 3.31
PhoP, residues 12 14 15 18 19 VHTVL (Escherichia coli, UniProt P23836) | 4.25
PhoP, residues 12 14 15 18 19 TQCLL (Escherichia coli, UniProt P23836) | 1.65

Excerpt of the above (set 2):
Substitution | normalised enrichment score
PKPLKKLRFDIEM [G13M] | -0.0967
PKPLNKLRFDIEG [K5N] | 0.187
PKPLKMLRFDIEG [K6M] | 0.322
PKPIKKLRFDIEG [L4I] | 0.726
